Experimental data of several laboratories.
Every numbered part comes from another study and shows a few of its results, in no order. Substitutions count along the parent as printed.

Sample 1
Target: Interferon regulatory factor 7, full length, phosphomimetic (IRF7, Homo sapiens, UniProt Q92985, residues 1-503, S101K/S471D/S472D/S475D/S476D/S477D/S483D/S484D/S487D)
UniProt Q92985, sequence (whole entry, unmodified, looked up): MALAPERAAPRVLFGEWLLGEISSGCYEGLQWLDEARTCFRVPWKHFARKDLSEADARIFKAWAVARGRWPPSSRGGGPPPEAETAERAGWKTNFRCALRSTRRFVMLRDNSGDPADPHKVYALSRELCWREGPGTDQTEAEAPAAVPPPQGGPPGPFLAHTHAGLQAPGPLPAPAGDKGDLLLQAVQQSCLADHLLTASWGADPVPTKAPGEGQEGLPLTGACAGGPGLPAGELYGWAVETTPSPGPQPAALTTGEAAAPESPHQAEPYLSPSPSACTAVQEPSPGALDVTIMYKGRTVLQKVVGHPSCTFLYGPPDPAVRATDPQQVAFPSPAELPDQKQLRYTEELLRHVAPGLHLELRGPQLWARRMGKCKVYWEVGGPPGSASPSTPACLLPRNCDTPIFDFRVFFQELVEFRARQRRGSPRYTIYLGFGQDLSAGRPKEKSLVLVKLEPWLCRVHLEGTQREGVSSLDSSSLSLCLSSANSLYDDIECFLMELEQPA
Method: protein-binding microarray
Molecule type: double-stranded DNA, one strand shown
Medium: in vitro
Concentration: 250 nM
Notes: 60-bp whole probe
With: salmon DNA 0.4 mg/ml
Reference: random background probes
Direction: higher = stronger binding
All sequences stand within: GCCTAGCAC … GTCTTGATTCGCTTGACGCTGCTG
| Oligonucleotide | log fluorescence |
| --- | --- |
| TCAAAGATCATTCTCACACTGTGCTAG | -0.0308 z-score |
| GACGGTTCCCTTTTCCTGACGTGCTAG | 2.72 z-score |
| TTAGTTATCGGTATCGGTTAGTGCTAG | 2.04 z-score |
| TTAGGTTTCCTTTCCGTTTAGTGCTAG | 4.66 z-score |
| TTAGGTTTCCATTCCCTTTAGTGCTAG | 6.78 z-score |
| TCAGATTTCAGTTTCGATTAGTGCTAG | 8.99 z-score |
| TTAGGACTGAACTATCGGTTAGTGCTA | -0.111 z-score |
| TTAGGACTGGGGCTGGGTTAGTGCTAG | -0.324 z-score |
| GACGCACTGGGGACTGGAGACGTGCTA | -0.182 z-score |
| CTTGCTTTTTAGATCGTCCCGTGCTAG | 0.484 z-score |
| TTAGGACCGGGGTATCGGTTAGTGCTA | 1.02 z-score |
| TTGGGTCTCCTTCTCCTTTAGTGCTAG | 0.16 z-score |
| GACGGTTTCCGTTCCGGGACGTGCTAG | 5.14 z-score |
| TCAACTCTAATCTCACTCACTGTGCTA | 0.0755 z-score |
| GACGGTTCCGGTTTCAGGACGTGCTAG | 5.69 z-score |
| TCATCTTTTATTTTTTTACTGTGCTAG | 0.734 z-score |
| GACGGACTGGACTTTCAGGACGTGCTA | -0.7 z-score |
| TTAGATCTAAGACTGGATTAGTGCTAG | 0.00181 z-score |
| GACGGACTGGGGATTGGGGACGTGCTA | -0.371 z-score |
| GAGGGACTGCTTATCCTGACGTGCTAG | -0.375 z-score |
| TTAGGTCTCCTTATCATTTAGTGCTAG | 0.304 z-score |
| GACTGTATCGACTATCGGGACGTGCTA | -0.144 z-score |
| GGCGGTCTCGGTTTCGGGACGTGCTAG | 7.98 z-score |

Sample 2
Target: CCND3, cyclin fold, Cln2 fusion (human)
Method: yeast growth competition, sequencing
Medium: yeast
Notes: weak parent motif
Reference: not given
Direction: higher = stronger binding
Parent: GMNC docking peptide (human); KNAKRNLSSEFAN; partner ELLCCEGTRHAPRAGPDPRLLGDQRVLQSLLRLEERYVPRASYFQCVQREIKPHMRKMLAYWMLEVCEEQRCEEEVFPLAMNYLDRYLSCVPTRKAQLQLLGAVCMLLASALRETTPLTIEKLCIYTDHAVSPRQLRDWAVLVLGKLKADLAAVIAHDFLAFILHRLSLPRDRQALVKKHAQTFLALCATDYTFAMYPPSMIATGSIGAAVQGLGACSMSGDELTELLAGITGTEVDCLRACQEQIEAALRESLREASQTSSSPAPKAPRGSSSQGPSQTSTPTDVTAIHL
| Substitution | normalised enrichment score |
| --- | --- |
| S9H | -0.252 |
| A12M | -0.197 |
| N6T | 0.573 |
| E10G | 0.0659 |
| L7W | -0.00193 |
| L7Q | 0.124 |
| L7E | 0.0301 |
| R5M | 0.267 |
| K4P | 0.318 |
| R5G | 0.367 |
| N2D | 0.125 |
| E10H | -0.0164 |
| S9V | 0.0129 |
| N6A | 0.169 |
| S8Q | 0.816 |
| A12D | -0.22 |
| L7I | 0.332 |
| A3M | 0.143 |
| R5V | -0.0744 |
| K4I | 0.331 |
| N6L | -0.299 |
| K4C | -0.0747 |
| S9K | -0.0615 |
| S8C | -0.321 |
| S9Q | -0.0849 |

Sample 3
Target: Histone acetyltransferase KAT6A, winged helix 2, GST fusion (KAT6A, Homo sapiens, UniProt Q92794, residues 85-181)
Method: protein binding microarray
Molecule type: double-stranded DNA, one strand shown
Medium: in vitro
Concentration: not given
Notes: 8-mer, flanks averaged, mean of 2 arrays, mostly near background
Reference: not given
Direction: higher = stronger binding
Residues (chain): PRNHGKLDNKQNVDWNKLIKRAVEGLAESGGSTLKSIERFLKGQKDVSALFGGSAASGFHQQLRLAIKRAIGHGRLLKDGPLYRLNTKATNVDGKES
| Oligonucleotide | E-score |
| --- | --- |
| CCCTCCCC | 0.198 |
| GGCGTGCA | 0.176 |
| CAGACAGA | 0.139 |
| ACGTTTTG | -0.203 |
| CGGACTAA | 0.0161 |
| ACGGATGG | 0.0224 |
| ACTTGCTG | 0.0927 |
| CAACTTGG | -0.0618 |
| AGGTCCCA | -0.0369 |
| CATCGCTC | 0.0903 |
| ACTCCACG | -0.179 |
| ACAACCTC | -0.233 |
| CCTTCTAC | -0.0722 |
| GCGCAAGC | 0.134 |
| TATACACA | -0.0144 |
| AGTTAAGA | -0.0192 |
| ATAAAGCC | -0.231 |
| GCACACTA | 0.00493 |
| AAACGCAC | 0.0397 |

Sample 4
Target: RING finger protein unkempt homolog, zinc fingers 1-6, GST-SBP tag (UNK, Homo sapiens, UniProt Q9C0B0, residues 30-357)
Method: RNA Bind-n-Seq
Molecule type: RNA
Medium: in vitro
Concentration: not given
Notes: RNA with constant flanks, ends assumed
Reference: input RNA pool
Direction: higher = stronger binding
All sequences stand within: GGGAGUUCUACAGUCCGACGAUC … CAACAGAGGAUUGAGCAUCA
Residues (chain): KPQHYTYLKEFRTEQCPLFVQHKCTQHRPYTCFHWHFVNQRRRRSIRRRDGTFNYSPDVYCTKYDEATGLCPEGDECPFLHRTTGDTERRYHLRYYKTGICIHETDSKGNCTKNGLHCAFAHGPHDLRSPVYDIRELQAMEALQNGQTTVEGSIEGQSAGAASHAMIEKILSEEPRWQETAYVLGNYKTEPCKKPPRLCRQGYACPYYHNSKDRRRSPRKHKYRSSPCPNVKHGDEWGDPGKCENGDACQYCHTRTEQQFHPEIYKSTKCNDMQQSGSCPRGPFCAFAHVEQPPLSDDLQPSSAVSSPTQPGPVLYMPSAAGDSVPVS
| Oligonucleotide | bound/input enrichment |
| --- | --- |
| UUAUGGGUGUAAGAGGUUUGCAGGGGUUUGUGGGGAGUACGUGCCCACACAUAUGUACCACCGUCAAUAUCCACGAGCUGGCAGAGCGUCACCGAAACAAGUACCCUGGAUGUACGCCUA | 0.127 ratio |
| CAAGGAAUGUUUCGGCAGGGAAGCUGGCCCGAGGCUGCGGGUGGCAUCUGAAGGCACUGGCCGGUGUGGAAGAGGCCCCACAGAUGCCAGACUGCACCAAGAAUUAGUAUCUUUCACAGC | 0.697 ratio |
| AUUCCCUCCAAAAUCAUCAGUUUAUCGGUGGUGCCAGGGGGUUGUGGUAUCAAAGAGAAGGUCCGCCCGGGACUUCUGCAAGUAGGGCAGUCUUCAACAUCUGUGGGAGAUAAAGGAAUU | 0.108 ratio |
| AGAAAAUAAAUGAUUUUUAAGUUAUGUCUAUUAAUCUGACUGUAGAUAUAUAUAUUUACCUCCUCCGUAAUGCAAGAAGUGUUUGUGGGAAGCAGAGAAGCAAGCAACUGUAUUUCUUGU | 0.303 ratio |
| GAAUUUUGUGCAUUUUCUCAGACAUUGCAACCUCAGAACAGGGAUGCUUUUUUCAAAACCUCCGCAAAAUUGGGAAUUCUUCCAGCUCUUGAAAUUGUAAUGGGCAUGGAUGACUUGCAA | 0.174 ratio |
| UUGACUCUCCUCUUUACAGAGCUAGCAAAAGUAAUAGAGAGCUCUGCAAAGGGUUUCCCCCGUUUUAUCUCUGAUAUGCUGUCUAAGUGCAAAGUUCAGAAAGUGAUUCUUCAUUGUUUG | 0.136 ratio |
| AAAAUAGUCCGAUGCCAUGAACAUAUAGAAAUCCUUACAGUAAAUGGAGAAUUACUCUUUUUCCGACAAAGAGAAGGGCCUUUUUAUCCAACCCUAAGAUUACUUCACAAAUAUCCUUUU | 0.376 ratio |
| GAAUCCAGUGAUUUGGUACAUGUUAAAUGGGAAUUAAAAAUCCAAAGACCCUGUAAUGAACCGUAAAGAUGAUGAUUUAUGUUGUAUGAGGAACCAAACUAUUGUAAUUUUGUACCAUAC | 0.102 ratio |
| AAAUGUACAGAAUCUGAAGAAGAAGAAGUCACCAAAGGAAAGGAAAAUCAACUUCAGCUCCGCUGUUUUAUCAAUCAGGAAGUCAAGUAUCUUUUUACAGGACUUAAAUUGCGACUUCAG | 0.115 ratio |
| GAUGGACUACAUUUGUCUCCAAAGGGGAAUGAAUUUUUGUUCUCGCAUCUCUGGCCUUUGACCGAGAAAAAGGUCUCUUCUCUACCUUUGCUGCUUCCUUACUGGCGGGAUGUAGCAGAA | 0.147 ratio |
| GGCUUUAUUCUGUGCCAUGGGAUGCUAAAUACGGAGGCUACCGCACUGAACCUUUGGAAGCCCGCUCUUCAGAGUAGCUCUUGCCUCUCUCUCUUUCGGGAUGAAGUUUUCCACAUUCAC | 0.0739 ratio |

Sample 5
Target: ABI1, truncated, D143A, DHFR fusion (Arabidopsis thaliana)
Method: DHFR PCA, deep sequencing
Medium: yeast
Notes: methotrexate growth selection, single substitutions
With: (+)-ABA 200 µM
Reference: wild-type fitted maximum
Direction: higher = stronger binding
Parent: PYL1, truncated, DHFR fusion (Arabidopsis thaliana); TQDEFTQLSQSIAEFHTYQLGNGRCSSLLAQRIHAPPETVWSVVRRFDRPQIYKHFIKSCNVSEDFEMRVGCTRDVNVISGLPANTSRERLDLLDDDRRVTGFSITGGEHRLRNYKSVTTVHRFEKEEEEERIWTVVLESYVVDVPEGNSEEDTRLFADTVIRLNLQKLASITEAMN; partner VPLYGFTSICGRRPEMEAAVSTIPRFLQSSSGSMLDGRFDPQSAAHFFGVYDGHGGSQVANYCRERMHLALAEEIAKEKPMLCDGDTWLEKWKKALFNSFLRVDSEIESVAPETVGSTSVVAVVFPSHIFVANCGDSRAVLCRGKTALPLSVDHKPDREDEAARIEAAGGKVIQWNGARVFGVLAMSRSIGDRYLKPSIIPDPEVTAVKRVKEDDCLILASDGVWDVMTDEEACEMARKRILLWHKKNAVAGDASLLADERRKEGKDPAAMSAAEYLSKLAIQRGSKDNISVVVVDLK
| Substitution | relative binding score |
| --- | --- |
| A158V | 106% |
| I12Q | 63.4% |
| V70C | 90% |
| R74Y | -0.346% |
| N114T | 34.2% |
| V142H | 83.7% |
| P36V | 80.3% |
| L166P | 25.9% |
| V76E | 4.6% |
| V100L | 95.8% |
| E129D | 117% |
| F56D | -6.63% |
| H16C | -5.27% |
| K126T | 110% |
| D3V | 96.4% |
| E67F | 92.3% |
| R132K | 114% |
| E174G | 81.2% |
| V136E | 50.8% |
| L93N | 65.6% |
| E67W | 91.9% |
| E139S | 84% |
| E14S | 92.4% |

For quick reference, copied from above (sample 1):
| Oligonucleotide | log fluorescence |
| --- | --- |
| TTAGGTTTCCTTTCCGTTTAGTGCTAG | 4.66 z-score |
| TTAGGTTTCCATTCCCTTTAGTGCTAG | 6.78 z-score |
| TCAGATTTCAGTTTCGATTAGTGCTAG | 8.99 z-score |
| TTAGGACTGAACTATCGGTTAGTGCTA | -0.111 z-score |
| TTAGGACTGGGGCTGGGTTAGTGCTAG | -0.324 z-score |
| GACGCACTGGGGACTGGAGACGTGCTA | -0.182 z-score |
| CTTGCTTTTTAGATCGTCCCGTGCTAG | 0.484 z-score |
| TTAGGACCGGGGTATCGGTTAGTGCTA | 1.02 z-score |
| TTGGGTCTCCTTCTCCTTTAGTGCTAG | 0.16 z-score |
| GACGGTTTCCGTTCCGGGACGTGCTAG | 5.14 z-score |
| TCAACTCTAATCTCACTCACTGTGCTA | 0.0755 z-score |
| GACGGTTCCGGTTTCAGGACGTGCTAG | 5.69 z-score |
| TCATCTTTTATTTTTTTACTGTGCTAG | 0.734 z-score |
